Assay results from different studies.
Every numbered part comes from another study and shows a few of its results, in no order.
Sequence of UniProt Q9BUB5 (whole entry, looked up): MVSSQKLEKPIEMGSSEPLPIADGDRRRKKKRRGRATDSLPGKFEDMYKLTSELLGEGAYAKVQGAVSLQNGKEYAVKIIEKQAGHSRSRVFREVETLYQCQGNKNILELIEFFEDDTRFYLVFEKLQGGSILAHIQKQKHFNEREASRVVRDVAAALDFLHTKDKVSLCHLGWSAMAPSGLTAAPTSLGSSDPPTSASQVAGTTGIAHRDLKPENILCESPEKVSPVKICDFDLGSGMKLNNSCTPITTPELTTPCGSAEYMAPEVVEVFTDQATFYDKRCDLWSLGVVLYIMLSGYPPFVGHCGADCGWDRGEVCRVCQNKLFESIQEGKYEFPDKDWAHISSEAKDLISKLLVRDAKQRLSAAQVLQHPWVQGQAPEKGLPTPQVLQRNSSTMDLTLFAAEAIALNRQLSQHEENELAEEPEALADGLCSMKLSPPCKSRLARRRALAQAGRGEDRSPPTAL
Sequence of UniProt Q9UPZ9 (whole entry, looked up): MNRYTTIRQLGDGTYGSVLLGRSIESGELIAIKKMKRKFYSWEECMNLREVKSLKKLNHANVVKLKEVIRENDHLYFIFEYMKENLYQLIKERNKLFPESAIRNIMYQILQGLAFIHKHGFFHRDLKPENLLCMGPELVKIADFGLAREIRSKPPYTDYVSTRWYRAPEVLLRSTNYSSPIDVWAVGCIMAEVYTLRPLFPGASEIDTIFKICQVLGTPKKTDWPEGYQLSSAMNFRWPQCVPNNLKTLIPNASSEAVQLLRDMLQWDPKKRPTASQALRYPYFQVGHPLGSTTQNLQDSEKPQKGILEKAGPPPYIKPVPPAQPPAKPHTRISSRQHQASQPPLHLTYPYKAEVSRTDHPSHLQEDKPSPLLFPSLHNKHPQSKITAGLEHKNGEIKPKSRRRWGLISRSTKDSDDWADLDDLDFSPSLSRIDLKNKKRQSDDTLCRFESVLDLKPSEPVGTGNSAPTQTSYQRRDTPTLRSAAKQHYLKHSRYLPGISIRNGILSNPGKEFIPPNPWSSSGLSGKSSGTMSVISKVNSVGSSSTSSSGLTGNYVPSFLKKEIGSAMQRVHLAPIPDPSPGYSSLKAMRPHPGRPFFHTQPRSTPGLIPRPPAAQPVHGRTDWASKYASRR
Sequence of UniProt P00519 (whole entry, looked up): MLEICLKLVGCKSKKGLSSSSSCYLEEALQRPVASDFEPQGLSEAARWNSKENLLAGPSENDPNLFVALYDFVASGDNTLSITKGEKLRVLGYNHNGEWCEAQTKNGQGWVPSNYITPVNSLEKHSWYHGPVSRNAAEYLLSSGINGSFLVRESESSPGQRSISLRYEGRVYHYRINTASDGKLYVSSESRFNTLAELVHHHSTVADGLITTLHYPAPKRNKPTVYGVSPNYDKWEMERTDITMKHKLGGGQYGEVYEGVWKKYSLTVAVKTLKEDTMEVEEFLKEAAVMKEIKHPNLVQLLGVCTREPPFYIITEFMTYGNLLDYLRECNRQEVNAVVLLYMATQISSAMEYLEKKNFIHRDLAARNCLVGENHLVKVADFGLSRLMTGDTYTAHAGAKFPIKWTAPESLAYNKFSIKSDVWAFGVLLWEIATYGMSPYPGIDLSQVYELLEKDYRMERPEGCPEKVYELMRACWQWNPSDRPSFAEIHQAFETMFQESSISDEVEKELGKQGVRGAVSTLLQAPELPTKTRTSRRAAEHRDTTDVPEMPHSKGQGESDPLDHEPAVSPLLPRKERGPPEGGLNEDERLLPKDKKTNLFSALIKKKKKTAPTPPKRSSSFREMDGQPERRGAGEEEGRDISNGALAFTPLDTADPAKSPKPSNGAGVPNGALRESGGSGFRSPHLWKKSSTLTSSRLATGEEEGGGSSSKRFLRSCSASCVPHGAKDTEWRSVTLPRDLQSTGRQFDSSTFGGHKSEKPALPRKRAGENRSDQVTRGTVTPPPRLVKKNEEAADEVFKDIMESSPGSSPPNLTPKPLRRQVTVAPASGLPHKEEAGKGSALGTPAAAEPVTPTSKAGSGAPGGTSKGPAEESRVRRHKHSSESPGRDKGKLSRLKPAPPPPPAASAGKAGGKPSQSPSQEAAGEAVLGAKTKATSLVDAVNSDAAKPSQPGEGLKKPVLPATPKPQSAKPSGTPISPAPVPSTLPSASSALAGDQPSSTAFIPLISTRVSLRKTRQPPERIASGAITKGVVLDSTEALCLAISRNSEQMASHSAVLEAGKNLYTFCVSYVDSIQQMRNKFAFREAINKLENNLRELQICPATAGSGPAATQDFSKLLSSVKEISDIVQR
Sequence of UniProt Q6XUX3 (whole entry, looked up): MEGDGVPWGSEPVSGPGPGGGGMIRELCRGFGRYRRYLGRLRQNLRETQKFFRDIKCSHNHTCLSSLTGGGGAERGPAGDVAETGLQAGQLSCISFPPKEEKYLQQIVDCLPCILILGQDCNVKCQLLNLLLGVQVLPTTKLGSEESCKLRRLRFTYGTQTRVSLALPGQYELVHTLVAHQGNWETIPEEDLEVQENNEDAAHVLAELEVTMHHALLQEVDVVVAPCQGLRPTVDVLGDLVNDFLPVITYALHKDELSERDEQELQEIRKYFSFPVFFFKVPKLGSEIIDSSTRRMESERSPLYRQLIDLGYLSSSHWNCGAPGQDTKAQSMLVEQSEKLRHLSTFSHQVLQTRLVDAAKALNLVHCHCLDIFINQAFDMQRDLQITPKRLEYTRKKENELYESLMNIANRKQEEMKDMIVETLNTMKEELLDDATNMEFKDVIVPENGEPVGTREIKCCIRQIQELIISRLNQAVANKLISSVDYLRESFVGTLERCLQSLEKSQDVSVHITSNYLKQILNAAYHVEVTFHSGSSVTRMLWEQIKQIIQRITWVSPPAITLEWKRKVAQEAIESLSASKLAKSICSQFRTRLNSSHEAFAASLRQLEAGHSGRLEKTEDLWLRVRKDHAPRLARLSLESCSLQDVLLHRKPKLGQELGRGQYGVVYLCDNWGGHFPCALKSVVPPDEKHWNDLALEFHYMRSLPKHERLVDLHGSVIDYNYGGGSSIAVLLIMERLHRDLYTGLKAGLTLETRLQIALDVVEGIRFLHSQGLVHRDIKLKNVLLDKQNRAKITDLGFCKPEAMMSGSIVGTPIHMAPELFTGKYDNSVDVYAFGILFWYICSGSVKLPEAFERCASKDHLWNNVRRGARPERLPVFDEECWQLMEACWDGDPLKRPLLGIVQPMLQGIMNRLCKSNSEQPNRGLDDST

Set 1 — effect on: enzyme activity; mode: inhibitor; concentration: 0.5 µM; baseline: control
Target: Vascular endothelial growth factor receptor 1 (FLT1, Homo sapiens, UniProt P17948)
Sequence of UniProt P17948 (whole entry, looked up): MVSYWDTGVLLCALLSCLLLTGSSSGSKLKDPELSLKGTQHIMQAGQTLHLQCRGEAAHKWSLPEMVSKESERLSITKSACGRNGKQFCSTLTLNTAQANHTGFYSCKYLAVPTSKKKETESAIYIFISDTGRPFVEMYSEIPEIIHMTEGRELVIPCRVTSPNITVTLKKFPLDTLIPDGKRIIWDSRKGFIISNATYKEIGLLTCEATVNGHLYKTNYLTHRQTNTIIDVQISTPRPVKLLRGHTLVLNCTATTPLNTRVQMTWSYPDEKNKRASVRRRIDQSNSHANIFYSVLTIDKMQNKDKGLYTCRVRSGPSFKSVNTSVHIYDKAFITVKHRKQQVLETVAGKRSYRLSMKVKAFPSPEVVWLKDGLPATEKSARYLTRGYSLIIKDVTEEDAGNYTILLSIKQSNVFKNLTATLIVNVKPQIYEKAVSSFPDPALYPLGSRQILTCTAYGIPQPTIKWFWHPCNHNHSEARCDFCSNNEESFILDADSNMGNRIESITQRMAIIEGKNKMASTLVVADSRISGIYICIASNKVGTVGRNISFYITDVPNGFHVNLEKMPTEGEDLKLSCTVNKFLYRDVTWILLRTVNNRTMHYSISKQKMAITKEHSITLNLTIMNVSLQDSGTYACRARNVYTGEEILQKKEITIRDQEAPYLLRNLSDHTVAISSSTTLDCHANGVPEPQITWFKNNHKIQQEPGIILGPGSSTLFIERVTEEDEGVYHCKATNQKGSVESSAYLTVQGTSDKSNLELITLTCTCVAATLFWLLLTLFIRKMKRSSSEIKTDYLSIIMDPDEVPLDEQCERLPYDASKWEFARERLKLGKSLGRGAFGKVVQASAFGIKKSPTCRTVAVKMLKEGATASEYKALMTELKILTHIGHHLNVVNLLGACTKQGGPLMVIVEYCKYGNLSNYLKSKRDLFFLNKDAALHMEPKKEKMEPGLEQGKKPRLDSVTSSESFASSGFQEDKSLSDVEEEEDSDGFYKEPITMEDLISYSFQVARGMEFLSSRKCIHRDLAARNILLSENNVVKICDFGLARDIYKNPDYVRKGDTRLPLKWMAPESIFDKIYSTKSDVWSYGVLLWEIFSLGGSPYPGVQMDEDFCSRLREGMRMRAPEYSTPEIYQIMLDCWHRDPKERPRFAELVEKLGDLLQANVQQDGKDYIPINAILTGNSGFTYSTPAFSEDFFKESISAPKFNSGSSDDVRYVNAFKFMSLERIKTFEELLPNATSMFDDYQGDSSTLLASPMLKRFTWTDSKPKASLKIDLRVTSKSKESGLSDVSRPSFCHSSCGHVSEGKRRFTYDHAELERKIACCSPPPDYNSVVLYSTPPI
SMILES	remaining activity [%]
O=C1NC(=O)C(c2cn(CCCO)c3ncccc23)=C1c1cnccn1	89.4
O=c1c2ccccc2[nH]c(=S)n1CCN1CCC(=C(c2ccc(F)cc2)c2ccc(F)cc2)CC1	95.2
CO[C@H]1C[C@@H]2CC[C@@H](C)[C@@](O)(O2)C(=O)C(=O)N2CCCC[C@H]2C(=O)O[C@H]([C@H](C)C[C@@H]2CC[C@@H](O)[C@H](OC)C2)CC(=O)[C@H](C)/C=C(\C)[C@@H](O)[C@@H](OC)C(=O)[C@H](C)C[C@H](C)/C=C/C=C/C=C/1C	97.7
COc1cc2ncnc(Nc3ccc(F)c(Cl)c3)c2cc1OCCCN1CCOCC1	98.3
O=C(Nc1cccc(Nc2cc(Nc3cccc(C(F)(F)F)c3)ncn2)c1)C1CC1	99.4
CC(C)[C@H](CO)Nc1nc(Nc2cc(N)cc(Cl)c2)c2ncn(C(C)C)c2n1	97.5
Cn1sc(=O)n(Cc2ccccc2)c1=O	96.1
COc1cc2ncnc(Nc3ccc(Oc4ccccc4)cc3)c2cc1OC	79.8
COc1ccc(OC)c2c(=S)c3ccccc3[nH]c12	101
O=C1NC(=O)C(c2cn(CCCn3ccnc3)c3ccccc23)=C1Nc1ccccc1	85.7
COc1ccc(CNC(=O)Nc2ncc([N+](=O)[O-])s2)cc1	96.8
N#CC(C#N)=C(N)/C(C#N)=C/c1ccc(O)cc1	90.7
NCCNc1ncc(C(N)=O)c(Nc2cccc(C(F)(F)F)c2)n1	87.5

Set 2 — effect on: cell-free assay; technique: competition with immobilised ligand; concentration: 1 µM
SMILES: CN(C)CC#Cc1ccc(OCCCc2sc(N3CCc4cccc(C(=O)Nc5nc6ccccc6s5)c4C3)nc2C(=O)O)c(F)c1
target	remaining binding [%]
FLT3 (Homo sapiens, UniProt P36888)	80
DSTYK (Homo sapiens, UniProt Q6XUX3)	100
MKNK1 (Homo sapiens, UniProt Q9BUB5)	78
FLT3 (Homo sapiens, UniProt P36888, K663Q)	100
CILK1 (Homo sapiens, UniProt Q9UPZ9)	100
Tyrosine-protein kinase ABL1, phosphorylated (ABL1, Homo sapiens, UniProt P00519)	93
Aurora kinase A (AURKA, Homo sapiens, UniProt O14965)	92

Set 3 — mode: antagonist
Target: Beta-1 adrenergic receptor (ADRB1, Homo sapiens, UniProt P08588)
Sequence of UniProt P08588 (whole entry, looked up): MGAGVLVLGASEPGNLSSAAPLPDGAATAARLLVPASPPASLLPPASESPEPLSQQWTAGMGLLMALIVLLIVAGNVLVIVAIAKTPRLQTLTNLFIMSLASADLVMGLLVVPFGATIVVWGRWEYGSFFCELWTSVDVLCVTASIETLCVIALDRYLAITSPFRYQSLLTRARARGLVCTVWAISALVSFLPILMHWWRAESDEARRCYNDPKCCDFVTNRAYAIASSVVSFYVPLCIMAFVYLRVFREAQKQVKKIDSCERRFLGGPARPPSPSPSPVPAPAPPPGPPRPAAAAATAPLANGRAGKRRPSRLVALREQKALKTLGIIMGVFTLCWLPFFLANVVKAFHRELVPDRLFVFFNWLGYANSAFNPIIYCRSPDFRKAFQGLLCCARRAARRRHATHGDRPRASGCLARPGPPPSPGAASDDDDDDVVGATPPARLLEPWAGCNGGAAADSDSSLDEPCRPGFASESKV
Compound	IC50 [µM]
Oc1ccccc1NCC(O)Cn1ccc2ccccc21 (centres unmarked)	≥ 100
COc1ccccc1OCC(O)CN1CCN(CC(=O)Nc2c(C)cccc2C)CC1 (centres unmarked)	≥ 100
Cc1ccccc1-c1n[nH]c2ncc(-c3ccccc3C#N)nc12	≥ 100
CC(C)(CO)NCC(O)c1ccccc1 (centres unmarked)	≥ 100
CC(C)CN1C(=O)COC[C@@H]1[C@H](O)c1ccc(NC(=O)Cc2ccccc2)cc1	≥ 100
Cc1ccc2c(C(=O)N3CCCC3C)cc(-c3cnn(C)c3)nc2c1 (centres unmarked)	≥ 100
Cc1cccc(OCC(O)CNC(C)C)c1 (centres unmarked)	≥ 100

Set 4 — species: mouse; matrix: microsomes or S9; concentration: 2 µM; time: 0.5 h
SMILES	remaining compound
O=S(=O)(/C(=C(\c1ccccc1)n1ccnc1)c1ccccc1)c1ccccc1	4.54%
COc1cc2c(c(Br)c1OC)CN(c1cc(C(=O)O)ccc1C)C2=O	> 99%
Cc1cc2c(nc1C)sc1c(=O)n(C(C)C)cnc12	8.24%
CON(C)c1nc(OCCNC(=O)OCc2ccc(Cl)cc2C)nc(N(C)C)n1	1.74%
c1ccc(C(c2ccccc2)([C@H]2CCCN2)n2cc(-c3ccccn3)nn2)cc1	1.53%
COc1cc(=O)n2c(c1C(=O)NCc1ccc(F)cc1Cl)CCCC2	43.1%
COC(=O)c1ccc(C(=O)Nc2cc(F)ccc2NC(C)C)[nH]1	7.58%
Cc1ccccc1Nc1nc(N)nc(-c2oc3ccccc3c2C)n1	2.93%
